{"data": "Measurements pooled from the literature", "note": "Parts stem from different laboratories: compare values within a part only. Substitutions count along the parent as printed."}
{"data": "Series 1", "target": "Histone acetyltransferase KAT6A, both winged helices, GST fusion (KAT6A, Homo sapiens, UniProt Q92794, residues 1-181)", "method": "protein binding microarray", "form": "double-stranded DNA, one strand shown", "matrix": "in vitro", "concentration": "not given", "notes": "8-mer, flanks averaged, mean of 2 arrays, mostly near background", "relative to": "not given", "reading": "higher = stronger binding", "Construct (chain)": "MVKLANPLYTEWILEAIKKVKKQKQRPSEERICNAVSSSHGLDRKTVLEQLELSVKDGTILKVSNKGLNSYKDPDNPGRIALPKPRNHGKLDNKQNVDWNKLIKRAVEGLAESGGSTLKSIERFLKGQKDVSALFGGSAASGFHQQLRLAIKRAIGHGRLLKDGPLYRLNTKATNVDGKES"}
{"Oligonucleotide": "ACCTTGGA", "E-score": -0.155}
{"Oligonucleotide": "AAGCGGTC", "E-score": 0.19}
{"Oligonucleotide": "CAGGCCCG", "E-score": 0.176}
{"Oligonucleotide": "CGCCGGTA", "E-score": 0.31}
{"Oligonucleotide": "GCAATGCA", "E-score": -0.0721}
{"Oligonucleotide": "ATGCAGGC", "E-score": -0.0795}
{"Oligonucleotide": "CATTTACC", "E-score": -0.149}
{"Oligonucleotide": "AGCAGCCT", "E-score": -0.245}
{"Oligonucleotide": "TAATCGTA", "E-score": -0.0396}
{"Oligonucleotide": "AATTCTAA", "E-score": -0.0579}
{"Oligonucleotide": "ACAACAGG", "E-score": -0.0927}
{"Oligonucleotide": "ACCGTCCT", "E-score": 0.0782}
{"Oligonucleotide": "ACGAGGGC", "E-score": -0.0483}
{"Oligonucleotide": "AAATTGGG", "E-score": -0.153}
{"data": "Series 2", "target": "ABI1, truncated, D143A, DHFR fusion (Arabidopsis thaliana)", "method": "DHFR PCA, deep sequencing", "matrix": "yeast", "notes": "methotrexate growth selection, single substitutions", "together with": "(+)-ABA 17 µM", "relative to": "wild-type fitted maximum", "reading": "higher = stronger binding", "starting sequence": "PYL1, truncated, DHFR fusion (Arabidopsis thaliana); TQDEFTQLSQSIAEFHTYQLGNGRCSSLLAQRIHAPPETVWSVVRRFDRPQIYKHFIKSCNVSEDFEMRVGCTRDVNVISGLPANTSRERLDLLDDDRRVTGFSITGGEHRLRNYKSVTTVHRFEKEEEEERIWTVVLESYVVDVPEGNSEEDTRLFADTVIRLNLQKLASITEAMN"}
{"Change": "E128G", "relative binding score [%]": 101}
{"Change": "S9E", "relative binding score [%]": 85.7}
{"Change": "T173Y", "relative binding score [%]": 5.87}
{"Change": "L138M", "relative binding score [%]": 62.6}
{"Change": "E125W", "relative binding score [%]": 72.4}
{"Change": "T160D", "relative binding score [%]": -5.41}
{"Change": "L169F", "relative binding score [%]": -8.27}
{"Change": "S9V", "relative binding score [%]": 67.5}
{"Change": "N114R", "relative binding score [%]": 44}
{"Change": "A30K", "relative binding score [%]": 87.3}
{"Change": "G71R", "relative binding score [%]": 7.25}
{"Change": "W134Y", "relative binding score [%]": 103}
{"Change": "L156F", "relative binding score [%]": 71.8}
{"data": "Series 3", "target": "CCNF, cyclin fold, Cln2 fusion (human)", "method": "yeast growth competition, sequencing", "matrix": "yeast", "notes": "strong parent motif", "relative to": "not given", "reading": "higher = stronger binding", "starting sequence": "RBL1 docking peptide (human); GSAKRRLFGEDPP"}
{"Change": "G1R", "normalised enrichment score": 8.1}
{"Change": "G9W", "normalised enrichment score": 7.99}
{"Change": "G1K", "normalised enrichment score": 7.81}
{"Change": "R6G", "normalised enrichment score": 0.407}
{"Change": "L7F", "normalised enrichment score": 0.744}
{"Change": "G1M", "normalised enrichment score": 7.31}
{"Change": "G9V", "normalised enrichment score": 8.94}
{"Change": "F8D", "normalised enrichment score": 1.11}
{"Change": "D11K", "normalised enrichment score": 7.01}
{"Change": "R6A", "normalised enrichment score": 4.91}
{"Change": "F8T", "normalised enrichment score": 0.6}
{"Change": "R6F", "normalised enrichment score": 1.83}
{"Change": "A3E", "normalised enrichment score": 2.7}
{"Change": "E10P", "normalised enrichment score": 8.1}
{"Change": "R6C", "normalised enrichment score": 5.57}
{"Change": "E10C", "normalised enrichment score": 6.29}
{"Change": "S2T", "normalised enrichment score": 7.05}
{"Change": "R5D", "normalised enrichment score": 0.103}
{"Change": "P12C", "normalised enrichment score": 6.63}
{"Change": "G9P", "normalised enrichment score": 8.03}
{"data": "Other studies, line by line"}
{"Substance": "PhoQ, residues 284 288 289 292 302 303 SQSLSM", "target": "PhoP, residues 12 14 15 18 19 FWNTL (Escherichia coli, UniProt P23836)", "test": "Sort-seq, refers to: YFP reporter", "system": "E. coli", "setting": "PhoQ-PhoP variant library, together with: 10 µM Mg2+", "how to read": "relative to: high Mg2+ state, higher = stronger signaling", "measurement": "fold induction", "value": 5.19}
{"note": "Excerpt of the above (series 3):"}
{"Change": "G9V", "normalised enrichment score": 8.94}
{"Change": "L7F", "normalised enrichment score": 0.744}
{"Change": "G1R", "normalised enrichment score": 8.1}
